Published values gathered from unrelated publications.
Lines come from different studies, so protocols differ. Numbers after ± are the reported error.
Organism: Klebsiella pneumoniae

Cc1ccc2ccc3ccc(C)nc3c2n1.Cc1ccc2ccc3ccc(C)nc3c2n1.O.[Cl-].[Cl-].[Cl-].[Yb+3]  inoculation time (bacterial growth): 24 h
COc1ccc(-c2ccn(CC[C@](C)(C(=O)NO)S(C)(=O)=O)c(=O)c2)c(F)c1  free AUC/MIC for 1-log kill (KP-1487, neutropenic mice, thigh infection; dose not given, 24 h): 13.5
N[C@@H](CN[C@@H](CN[C@@H](CC(=O)O)C(=O)O)C(=O)O)C(=O)O  rescue concentration (ATCC 33495::pGDP2, NDM-1, Mueller-Hinton broth; added: meropenem 2 µg/mL): 8 µg/mL
c1ccc(CN2CCOCCOCCN(CCCCCCCCCCN3CCOCCOCCN(CCCCCCCCCCN4CCOCCOCCN(Cc5ccccc5)CCOCCOCC4)CCOCCOCC3)CCOCCOCC2)cc1  fold enhancement (tetracycline MIC, checkerboard; ATCC BAA-2146; half MIC, added: tetracycline; reference: MIC alone over combination): 8 fold
Oc1ccc(F)cc1-c1nc2c(Cl)cc(Cl)cc2[nH]1  MIC of colistin (colistin potentiator; B9; 5 µM): 0.125 µg/mL
CC(=NNC(=N)N)c1nnn(-c2ccc(C#CC3(O)CCCCC3)cc2)c1C  biofilm inhibition (crystal violet; ATCC 13883; MIC): 72.11 ± 0.51%
c1ccc(CN2CCOCCOCCN(CCCCCCCCCCCCCCN3CCOCCOCCN(CCCCCCCCCCCCCCN4CCOCCOCCN(Cc5ccccc5)CCOCCOCC4)CCOCCOCC3)CCOCCOCC2)cc1  fold enhancement (tetracycline MIC, checkerboard; ATCC BAA-2146; half MIC, added: tetracycline; reference: MIC alone over combination): 16 fold
CCOC(=O)C1=C(C)NC2=C(C(=O)CC(C)(C)C2)C1c1ccc(OCC(=O)NN=Cc2cc(Br)c(O)c(Br)c2)cc1OCC(=O)NN=Cc1cc(Br)c(O)c(Br)c1 (stereo not shown)  inhibition zone diameter (EMCS; concentration not given, 24 h, 37 °C): 3.2 ± 0.3 mm
NC(CNC(CNC(CC(=O)O)C(=O)O)C(=O)O)C(=O)O (stereo not shown)  survival (N11-2218 NDM-1-positive, mice; subcutaneous, 30 mg/kg single dose, 5 days, added: meropenem 10 mg/kg): > 95%
Oc1ccc(C(F)(F)F)cc1-c1nc2c(Cl)cc(Cl)cc2[nH]1  MIC of colistin (colistin potentiator; B9; 5 µM): 0.125 µg/mL
CCOC(=O)C1=C(C)NC2=C(C(=O)CC(C)(C)C2)C1c1ccc(OCC(=O)NN=Cc2cccc([N+](=O)[O-])c2)cc1OCC(=O)NN=Cc1cccc([N+](=O)[O-])c1 (stereo not shown)  inhibition zone diameter (EMCS; concentration not given, 24 h, 37 °C): 4.6 ± 0.2 mm
Oc1ccc(Cl)cc1-c1nc2c(Cl)cc(Cl)cc2[nH]1  MIC of colistin (colistin potentiator; B9; 5 µM): 0.25 µg/mL
O.O.O.O.O=C([O-])Cc1ccccc1Nc1c(Cl)cccc1Cl.O=C([O-])Cc1ccccc1Nc1c(Cl)cccc1Cl.[Na+].[Na+].c1cnc2c(c1)ccc1cccnc12.c1cnc2c(c1)ccc1cccnc12  inhibition (biofilm formation, crystal violet; ATCC 13882; 250 µM): 78.03 ± 0.062%

A few entries again:
CCOC(=O)C1=C(C)NC2=C(C(=O)CC(C)(C)C2)C1c1ccc(OCC(=O)NN=Cc2cccc([N+](=O)[O-])c2)cc1OCC(=O)NN=Cc1cccc([N+](=O)[O-])c1 (stereo not shown)  inhibition zone diameter (EMCS; concentration not given, 24 h, 37 °C): 4.6 ± 0.2 mm
Oc1ccc(Cl)cc1-c1nc2c(Cl)cc(Cl)cc2[nH]1  MIC of colistin (colistin potentiator; B9; 5 µM): 0.25 µg/mL
